{"data": "Published values gathered from unrelated publications", "note": "Numbered parts are unrelated; each lists some results of a single study. Values joined by “and” are separate records of one study, mostly repeats; a detail may differ. Changes are numbered by the printed parent chain.", "chain of UniProt P42336 (whole entry, unmodified, looked up)": "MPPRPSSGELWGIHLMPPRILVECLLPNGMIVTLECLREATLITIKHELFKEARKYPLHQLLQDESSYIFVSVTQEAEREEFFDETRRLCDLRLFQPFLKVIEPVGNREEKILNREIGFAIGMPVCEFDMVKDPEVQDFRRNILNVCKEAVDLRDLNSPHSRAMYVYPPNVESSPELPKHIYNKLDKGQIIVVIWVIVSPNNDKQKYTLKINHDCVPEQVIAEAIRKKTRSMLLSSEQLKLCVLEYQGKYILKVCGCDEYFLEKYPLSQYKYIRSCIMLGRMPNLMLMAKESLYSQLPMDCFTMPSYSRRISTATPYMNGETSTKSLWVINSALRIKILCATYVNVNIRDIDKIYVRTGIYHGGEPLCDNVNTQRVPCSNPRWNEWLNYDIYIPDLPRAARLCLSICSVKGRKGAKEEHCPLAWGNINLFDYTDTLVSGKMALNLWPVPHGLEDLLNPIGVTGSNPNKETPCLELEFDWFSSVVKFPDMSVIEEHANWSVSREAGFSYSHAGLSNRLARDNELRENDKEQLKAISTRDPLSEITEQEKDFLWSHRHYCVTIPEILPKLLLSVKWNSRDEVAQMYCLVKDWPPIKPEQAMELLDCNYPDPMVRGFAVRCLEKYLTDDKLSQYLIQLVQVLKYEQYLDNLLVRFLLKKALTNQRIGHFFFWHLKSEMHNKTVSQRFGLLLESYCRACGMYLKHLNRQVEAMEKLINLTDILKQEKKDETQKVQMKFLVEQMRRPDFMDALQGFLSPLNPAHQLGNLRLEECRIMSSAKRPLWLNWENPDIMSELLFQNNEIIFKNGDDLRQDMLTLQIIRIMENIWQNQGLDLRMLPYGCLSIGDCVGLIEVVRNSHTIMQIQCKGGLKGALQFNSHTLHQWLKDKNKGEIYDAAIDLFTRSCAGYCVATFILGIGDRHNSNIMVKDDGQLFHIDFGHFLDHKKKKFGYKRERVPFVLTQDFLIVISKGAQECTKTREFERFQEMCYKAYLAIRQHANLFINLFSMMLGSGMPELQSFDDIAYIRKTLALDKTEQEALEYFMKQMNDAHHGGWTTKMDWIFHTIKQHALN", "chain of UniProt Q9NRH2 (whole entry, looked up)": "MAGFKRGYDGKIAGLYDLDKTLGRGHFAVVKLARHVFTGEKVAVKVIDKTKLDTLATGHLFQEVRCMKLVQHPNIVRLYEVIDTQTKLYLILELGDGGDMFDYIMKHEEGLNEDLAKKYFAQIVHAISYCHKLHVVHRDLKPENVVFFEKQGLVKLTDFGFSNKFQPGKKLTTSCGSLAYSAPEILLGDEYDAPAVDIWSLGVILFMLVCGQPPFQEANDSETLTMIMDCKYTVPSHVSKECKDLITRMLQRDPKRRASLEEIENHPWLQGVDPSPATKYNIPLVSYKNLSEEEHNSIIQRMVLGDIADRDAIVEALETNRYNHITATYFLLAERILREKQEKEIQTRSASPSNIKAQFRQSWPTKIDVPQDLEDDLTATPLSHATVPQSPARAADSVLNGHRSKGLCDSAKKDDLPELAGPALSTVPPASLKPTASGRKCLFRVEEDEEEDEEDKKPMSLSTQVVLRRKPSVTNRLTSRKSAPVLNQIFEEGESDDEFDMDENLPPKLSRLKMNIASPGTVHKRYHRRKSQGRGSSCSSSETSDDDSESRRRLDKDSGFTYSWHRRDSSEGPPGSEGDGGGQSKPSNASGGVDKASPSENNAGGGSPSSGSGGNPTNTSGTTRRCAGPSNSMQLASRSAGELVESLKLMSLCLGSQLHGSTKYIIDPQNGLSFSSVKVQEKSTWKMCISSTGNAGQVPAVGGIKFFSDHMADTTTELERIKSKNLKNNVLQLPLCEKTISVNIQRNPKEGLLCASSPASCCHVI", "chain of UniProt Q9P2K8 (whole entry, unmodified, looked up)": "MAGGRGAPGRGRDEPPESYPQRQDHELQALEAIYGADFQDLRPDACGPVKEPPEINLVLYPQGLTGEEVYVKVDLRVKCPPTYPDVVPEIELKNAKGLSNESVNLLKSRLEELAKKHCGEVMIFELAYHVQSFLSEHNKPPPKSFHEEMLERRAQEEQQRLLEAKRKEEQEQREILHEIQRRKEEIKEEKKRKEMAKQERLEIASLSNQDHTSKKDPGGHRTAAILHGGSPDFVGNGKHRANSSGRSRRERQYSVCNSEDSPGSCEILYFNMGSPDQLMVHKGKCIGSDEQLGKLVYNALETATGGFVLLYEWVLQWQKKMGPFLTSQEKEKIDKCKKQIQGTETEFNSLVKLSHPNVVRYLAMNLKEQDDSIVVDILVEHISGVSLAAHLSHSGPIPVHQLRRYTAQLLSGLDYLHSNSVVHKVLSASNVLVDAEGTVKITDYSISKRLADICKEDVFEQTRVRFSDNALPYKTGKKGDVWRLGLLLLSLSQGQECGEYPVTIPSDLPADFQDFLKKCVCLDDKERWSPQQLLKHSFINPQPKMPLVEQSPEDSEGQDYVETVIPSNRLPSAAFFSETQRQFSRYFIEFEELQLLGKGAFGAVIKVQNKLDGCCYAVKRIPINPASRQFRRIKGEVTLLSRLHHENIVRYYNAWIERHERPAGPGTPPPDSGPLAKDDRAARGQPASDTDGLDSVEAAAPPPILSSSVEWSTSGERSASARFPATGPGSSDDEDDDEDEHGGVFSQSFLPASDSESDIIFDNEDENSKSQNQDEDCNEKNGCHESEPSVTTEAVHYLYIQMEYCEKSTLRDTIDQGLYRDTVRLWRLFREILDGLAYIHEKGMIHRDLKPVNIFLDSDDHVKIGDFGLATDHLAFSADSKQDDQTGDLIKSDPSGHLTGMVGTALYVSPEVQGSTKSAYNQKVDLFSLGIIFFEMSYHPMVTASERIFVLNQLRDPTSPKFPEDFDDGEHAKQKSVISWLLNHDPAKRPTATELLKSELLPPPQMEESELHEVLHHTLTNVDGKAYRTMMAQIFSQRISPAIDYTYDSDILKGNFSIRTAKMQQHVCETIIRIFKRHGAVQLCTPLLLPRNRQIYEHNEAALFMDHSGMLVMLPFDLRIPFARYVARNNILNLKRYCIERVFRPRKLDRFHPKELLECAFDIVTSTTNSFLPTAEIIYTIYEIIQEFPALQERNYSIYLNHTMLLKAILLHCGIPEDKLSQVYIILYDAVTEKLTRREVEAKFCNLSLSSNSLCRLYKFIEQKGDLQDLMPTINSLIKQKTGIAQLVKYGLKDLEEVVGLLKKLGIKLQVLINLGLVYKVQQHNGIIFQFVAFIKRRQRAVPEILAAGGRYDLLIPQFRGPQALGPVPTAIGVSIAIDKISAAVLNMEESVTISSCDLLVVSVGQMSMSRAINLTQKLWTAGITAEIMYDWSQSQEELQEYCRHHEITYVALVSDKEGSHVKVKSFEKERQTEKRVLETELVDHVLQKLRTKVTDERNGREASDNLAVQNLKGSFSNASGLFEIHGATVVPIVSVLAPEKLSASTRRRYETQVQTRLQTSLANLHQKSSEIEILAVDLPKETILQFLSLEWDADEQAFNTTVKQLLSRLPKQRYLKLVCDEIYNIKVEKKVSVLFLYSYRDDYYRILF", "chain of UniProt Q13882 (whole entry, looked up)": "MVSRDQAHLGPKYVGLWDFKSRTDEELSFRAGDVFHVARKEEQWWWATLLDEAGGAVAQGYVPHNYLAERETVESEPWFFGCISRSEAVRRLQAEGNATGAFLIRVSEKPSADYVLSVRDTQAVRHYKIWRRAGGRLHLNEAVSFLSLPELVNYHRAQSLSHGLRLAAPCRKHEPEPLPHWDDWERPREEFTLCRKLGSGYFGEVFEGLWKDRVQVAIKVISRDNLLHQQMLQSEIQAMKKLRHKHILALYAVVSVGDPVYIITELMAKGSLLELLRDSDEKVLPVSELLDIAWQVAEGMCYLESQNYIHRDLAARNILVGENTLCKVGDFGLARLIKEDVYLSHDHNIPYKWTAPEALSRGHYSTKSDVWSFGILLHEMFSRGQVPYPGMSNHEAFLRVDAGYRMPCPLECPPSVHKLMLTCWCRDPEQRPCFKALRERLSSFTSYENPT"}
{"data": "Set 1", "target": "CCNA2, cyclin fold, Cln2 fusion (human)", "method": "yeast growth competition, sequencing", "matrix": "yeast", "setting": "strong parent motif", "reference": "not given", "direction": "higher = stronger binding", "parent": "viral docking peptide; KKAKRRLFTISDS"}
{"Substitution": "KKAKRRLFTISDA [S13A]", "normalised enrichment score": 4.86}
{"Substitution": "KKAKRRLLTISDS [F8L]", "normalised enrichment score": 1.39}
{"Substitution": "KKAKRRLFTIADS [S11A]", "normalised enrichment score": 5.82}
{"Substitution": "KKAKRRLFTISAS [D12A]", "normalised enrichment score": 3.76}
{"Substitution": "KAAKRRLFTISDS [K2A]", "normalised enrichment score": 3.85}
{"Substitution": "KKAKKRLFTISDS [R5K]", "normalised enrichment score": 3.64}
{"Substitution": "AKAKRRLFTISDS [K1A]", "normalised enrichment score": 4.65}
{"Substitution": "KKAKRRAFTISDS [L7A]", "normalised enrichment score": 1.07}
{"data": "Set 2", "Compound": "CCn1cnc2c(Nc3cccc(Cl)c3)nc(N[C@H]3CCCC[C@H]3N)nc21", "read-out": "enzyme activity", "mode": "inhibitor", "tested at": "0.5 µM", "reference": "control"}
{"target": "Protein-tyrosine kinase 6 (PTK6, Homo sapiens, UniProt Q13882)", "remaining activity [%]": 82.1}
{"target": "SRSF protein kinase 2 (SRPK2, Homo sapiens, UniProt P78362)", "remaining activity [%]": 80.7}
{"target": "Serine/threonine-protein kinase B-raf (BRAF, Homo sapiens, UniProt P15056)", "remaining activity [%]": 93}
{"data": "Set 3", "target": "tungstate, free oxyanion", "method": "microfluidic competitive inhibition", "matrix": "in vitro, cell-free expressed", "tested at": "not given", "setting": "derived from inhibition constants, unchanged parent 2230 nM", "direction": "lower = stronger binding", "parent": "PafA, mature enzyme, eGFP fusion (Elizabethkingia meningoseptica, UniProt Q9KJX5); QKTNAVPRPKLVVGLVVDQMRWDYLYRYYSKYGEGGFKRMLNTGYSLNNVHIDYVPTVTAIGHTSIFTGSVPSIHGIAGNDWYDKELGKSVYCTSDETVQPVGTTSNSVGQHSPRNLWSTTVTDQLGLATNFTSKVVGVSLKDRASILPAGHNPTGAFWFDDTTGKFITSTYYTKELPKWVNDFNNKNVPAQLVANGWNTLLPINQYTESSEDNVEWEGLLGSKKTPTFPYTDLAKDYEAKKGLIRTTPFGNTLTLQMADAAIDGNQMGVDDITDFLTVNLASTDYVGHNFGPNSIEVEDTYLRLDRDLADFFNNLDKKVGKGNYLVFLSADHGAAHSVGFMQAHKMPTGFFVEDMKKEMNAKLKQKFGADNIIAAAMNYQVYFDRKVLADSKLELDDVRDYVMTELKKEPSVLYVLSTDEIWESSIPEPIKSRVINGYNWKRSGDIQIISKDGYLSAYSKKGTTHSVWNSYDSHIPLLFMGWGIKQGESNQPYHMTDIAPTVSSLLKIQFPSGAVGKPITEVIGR"}
{"Substitution": "E429G", "oxyanion analog dissociation constant": "1.79 µM"}
{"Substitution": "F132G", "oxyanion analog dissociation constant": "1.87 µM"}
{"Substitution": "F132V", "oxyanion analog dissociation constant": "1.35 µM"}
{"Substitution": "D317G", "oxyanion analog dissociation constant": "1.4 µM"}
{"Substitution": "R21G", "oxyanion analog dissociation constant": "2.86 µM"}
{"Substitution": "K236V", "oxyanion analog dissociation constant": "2.5 µM"}
{"Substitution": "N131G", "oxyanion analog dissociation constant": "1.26 µM"}
{"Substitution": "S283V", "oxyanion analog dissociation constant": "3.33 µM"}
{"data": "Set 4", "SMILES": "Cn1cncc1[C@](O)(COc1ccc(C#N)cc1-c1ccc(OC(F)(F)F)cc1)c1ccc(C#N)cc1", "read-out": "cell-free assay", "method": "competition with immobilised ligand", "tested at": "1 µM"}
{"target": "Phosphatidylinositol 4,5-bisphosphate 3-kinase catalytic subunit alpha isoform (PIK3CA, Homo sapiens, UniProt P42336, H1047L)", "remaining binding [%]": 100}
{"target": "eIF-2-alpha kinase GCN2, C-terminal kinase domain (EIF2AK4, Homo sapiens, UniProt Q9P2K8, S808G)", "remaining binding [%]": 99}
{"target": "SNF-related serine/threonine-protein kinase (SNRK, Homo sapiens, UniProt Q9NRH2)", "remaining binding [%]": 100}
{"target": "ALK tyrosine kinase receptor (ALK, Homo sapiens, UniProt Q9UM73)", "remaining binding [%]": 100}
{"target": "Epidermal growth factor receptor (EGFR, Homo sapiens, UniProt P00533, G719C)", "remaining binding [%]": 82}
{"target": "Receptor-interacting serine/threonine-protein kinase 1 (RIPK1, Homo sapiens, UniProt Q13546)", "remaining binding [%]": 79}
{"target": "Mitotic checkpoint serine/threonine-protein kinase BUB1 (BUB1, Homo sapiens, UniProt O43683)", "remaining binding [%]": 85}
{"target": "Serine/threonine-protein kinase 32B (STK32B, Homo sapiens, UniProt Q9NY57)", "remaining binding [%]": 100}
{"target": "Receptor-type tyrosine-protein kinase FLT3 (FLT3, Homo sapiens, UniProt P36888, F691L/ITD)", "remaining binding [%]": 98}
{"target": "Mast/stem cell growth factor receptor Kit (KIT, Homo sapiens, UniProt P10721, A829P)", "remaining binding [%]": 79}
{"target": "Platelet-derived growth factor receptor alpha (PDGFRA, Homo sapiens, UniProt P16234)", "remaining binding [%]": 100}
{"target": "STE20-like serine/threonine-protein kinase (SLK, Homo sapiens, UniProt Q9H2G2)", "remaining binding [%]": 90}
{"target": "Phosphatidylinositol 4,5-bisphosphate 3-kinase catalytic subunit alpha isoform (PIK3CA, Homo sapiens, UniProt P42336, H1047Y)", "remaining binding [%]": 77}
{"target": "Dual specificity mitogen-activated protein kinase kinase 7 (MAP2K7, Homo sapiens, UniProt O14733)", "remaining binding [%]": 100}
{"target": "Mitogen-activated protein kinase 1 (MAPK1, Homo sapiens, UniProt P28482)", "remaining binding [%]": 90}
{"data": "Mixed results"}
{"Compound": "Cc1sc2c(c1C)C(c1ccc(Cl)cc1)=N[C@@H](CC(=O)OC(C)(C)C)c1nnc(C)n1-2", "tested on": "mouse MPNST tumor cells", "test": "high-content immunofluorescence imaging, measured: nuclear SOX9", "setting": "10 µM, 12 h, mean of 2 replicates", "scale": "reference: DMSO control, higher = more nuclear SOX9", "quantity": "nuclear SOX9 intensity", "value": "127 % of DMSO"}
{"Compound": "CNC(=O)c1ccc(-c2cnn3ccc(C(=O)N(C)c4ccc(Cl)c(C(=O)OC)c4)cc23)cc1", "tested on": "Cryptosporidium parvum", "test": "time-kill", "test system": "nanoluciferase-expressing", "setting": "3 nM, 4 h", "scale": "reference: DMSO", "quantity": "luminescence", "value": "88.6% and 118%"}
{"note": "Some of these lines once more (mixed results):"}
{"Compound": "CNC(=O)c1ccc(-c2cnn3ccc(C(=O)N(C)c4ccc(Cl)c(C(=O)OC)c4)cc23)cc1", "tested on": "Cryptosporidium parvum", "test": "time-kill", "test system": "nanoluciferase-expressing", "setting": "3 nM, 4 h", "scale": "reference: DMSO", "quantity": "luminescence", "value": "88.6% and 118%"}
{"Compound": "Cc1sc2c(c1C)C(c1ccc(Cl)cc1)=N[C@@H](CC(=O)OC(C)(C)C)c1nnc(C)n1-2", "tested on": "mouse MPNST tumor cells", "test": "high-content immunofluorescence imaging, measured: nuclear SOX9", "setting": "10 µM, 12 h, mean of 2 replicates", "scale": "reference: DMSO control, higher = more nuclear SOX9", "quantity": "nuclear SOX9 intensity", "value": "127 % of DMSO"}
